{"data": "Measurements pooled from the literature", "note": "Each numbered part is a random draw from the data of one study; scales do not carry over between parts."}
{"data": "Block 1", "target": "RING finger protein unkempt homolog, zinc fingers 1-6, SBP tag (UNK, Homo sapiens, UniProt Q9C0B0, residues 30-357)", "method": "RNA Bind-n-Seq", "molecule type": "RNA", "medium": "in vitro", "tested at": "100 nM", "notes": "RNA with constant flanks, vertebrate orthologous sites, ends assumed", "baseline": "input RNA pool", "reading": "higher = stronger binding", "all sequences stand within": "GGGAGUUCUACAGUCCGACGAUC … CAACAGAGGAUUGAGCAUCA", "sequence of UniProt Q9C0B0 (30-357, looked up)": "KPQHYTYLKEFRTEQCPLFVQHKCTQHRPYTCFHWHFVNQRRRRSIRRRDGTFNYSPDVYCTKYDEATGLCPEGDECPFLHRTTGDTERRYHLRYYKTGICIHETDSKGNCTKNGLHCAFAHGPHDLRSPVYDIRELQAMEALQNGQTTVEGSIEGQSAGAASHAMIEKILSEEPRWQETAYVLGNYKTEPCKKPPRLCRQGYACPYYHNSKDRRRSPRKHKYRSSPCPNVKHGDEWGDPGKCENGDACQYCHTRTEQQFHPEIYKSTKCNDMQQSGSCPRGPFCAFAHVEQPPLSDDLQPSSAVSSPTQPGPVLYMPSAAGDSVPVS"}
{"Sequence": "GGGAGAGCCGGUGGGGGAAUCCCAUGCCCUGGCCUGCCACCCCUCCCUGCCACCCGCUCCUAGUUUGUUUUUUUUUAAACCACCAUGUGAUUAAGGUCGGCACUGCCUCCCCCGACCAGC", "bound/input enrichment": "1.17 ratio"}
{"Sequence": "CUGAAGCUUUGUGUCUGGCUGCACUUGCAUAAGCUGCUACAAAUAGAAUAAAGAAUUUCUUAGCCUGGAUCUAUCAUUUAGAUGCAUGGAAAAUGGGCUUUGCACACAGUGGGUUUGGAG", "bound/input enrichment": "1.36 ratio"}
{"Sequence": "UGUGCUUAUGCUCUUCUAUGAAAGAGAUGAAUUGGGGAGAACUGUCUCCUUUUUAUAGGUUAGUUUCUUUCUAAAUUAUGACUAAAAAUAUUUUGCUAUUUCUUUCUUUGUAUAUGGACG", "bound/input enrichment": "0.49 ratio"}
{"Sequence": "AAAAAUGGCCUCUGCUCUAUUAAAAAGUAGGAACAGUCCUGCAAAUAUGAAGGUCCUAAAUAGCUAUUUUUGAAAUUAAAAAGUUUAAAUUUUGUAAAUCAGCUGUUGCUACUCCAUGAC", "bound/input enrichment": "0.35 ratio"}
{"Sequence": "CAGCUGAUUCACUUAUUGGGAGAGCUGCACACAUAGCUGUUCUGGAUUCAGAAAUAUUUUUAGAGAAAUUCUUUCUGGUUGCUGCCCUCAAAUAUUUCCAAUAGGAUAAAAACAUUGUUA", "bound/input enrichment": "1.13 ratio"}
{"Sequence": "GAGAUGAGACCAUAGACAGGGGUAACUUAAUUUAUUUUAAUAAGAUACUGAGAACCACCUUAGUAGUAGGUUCCGUUGGCAAAUGUCAGCCUAUAUUCCAAAGUAUUCUAUAAUGGAAAU", "bound/input enrichment": "1.25 ratio"}
{"Sequence": "CUGAAGCUUUGUGUUUGGCUGCACCUGCAUAAGCUGCUACAAAUAGAAUAAAGAAUUUCAUAGCCUGUAUCUAUCAUUUAGGUGCAUGGAAAAAAAUGGGCUUUGCACACAAUGGGUUUG", "bound/input enrichment": "1.69 ratio"}
{"Sequence": "UGGGGACCAGUUCUCCGACUCGGCUCAGUAGUGGAGACAACAGGCAGAAUGACACCUGUAUAGAAAAAGCAGAAGUUCAAUCAUGUAAAGCACAUGCUGCCGGUGGUCCAGGCUCUAAGG", "bound/input enrichment": "0.155 ratio"}
{"Sequence": "CAGUUUUGUUUUUUUAAUGUUUCCUGUAAAUAAUGGAUAAUCAUUUUUUGUUUUGUUUUUAAGUGCUGUUUUAAAAAUGUGGAUAAACCAUAAGUGUACUUGCUGAAUUCAUUCAUUUUU", "bound/input enrichment": "0.253 ratio"}
{"Sequence": "AAGAUGGUGGUUGUACAUAAUUUCAUUUAGAAAAUAUAAACUUUCGUUUUGUUUUGAAACUAGGUAUUAAACUGGAAUAGAUAAUACAACCCUGAGAAUGGGGCACUUAUGCCCUCCAUU", "bound/input enrichment": "1.35 ratio"}
{"Sequence": "AAGAAAUGCUGGCUGCAAACCCUCAGGAUCGUCCAGAUGCUUUUGAACUAGAACUCAGAUUAGUACAAAUUGCAUUUAAAGAUAACAGCUGGGAAACGUGACACAUAUAUUGUUUGCAAA", "bound/input enrichment": "1.37 ratio"}
{"data": "Block 2", "target": "Phosphate system positive regulatory protein PHO4, full length, GST-tagged (PHO4, Saccharomyces cerevisiae, UniProt P07270, residues 1-312)", "method": "competition protein-binding microarray", "molecule type": "double-stranded DNA, one strand shown", "medium": "in vitro", "tested at": "2 µM", "notes": "whole 60-bp probe, lowest competitor level", "with": "Cbf1 competitor, 0.05 µM", "reading": "higher = stronger binding", "all sequences stand within": "… GTCTTGATTCGCTTGACGCTGCTG", "Construct (chain)": "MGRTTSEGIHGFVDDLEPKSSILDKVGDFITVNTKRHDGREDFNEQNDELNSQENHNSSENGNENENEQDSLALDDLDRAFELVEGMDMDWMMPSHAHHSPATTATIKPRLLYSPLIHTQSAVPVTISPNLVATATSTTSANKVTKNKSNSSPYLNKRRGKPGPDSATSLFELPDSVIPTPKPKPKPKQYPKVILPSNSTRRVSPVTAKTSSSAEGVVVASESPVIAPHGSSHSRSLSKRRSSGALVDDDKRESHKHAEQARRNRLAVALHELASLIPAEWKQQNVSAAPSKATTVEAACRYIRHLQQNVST"}
{"Sequence": "GTAATAGTACCTTAACACATGACGAAGATGAAAATT", "fluorescence intensity [a.u.]": 6940}
{"Sequence": "AACAATAGAAGAAGTGTATAGGAAAAAACTAAGGTG", "fluorescence intensity [a.u.]": 3550}
{"Sequence": "GACGCCAAGTCCCATCACGTGGTTACGATGTATCGG", "fluorescence intensity [a.u.]": 14800}
{"Sequence": "CTCCTTTGGGATACCACCGTGGGTAATCTCAGCGGG", "fluorescence intensity [a.u.]": 8170}
{"Sequence": "GCCTTACATATTTGTCATGCTTTGACTATTGCTATC", "fluorescence intensity [a.u.]": 5150}
{"Sequence": "ACAAATTAATGGCACAACGTGGGTATGACGAAAAAG", "fluorescence intensity [a.u.]": 14400}
{"Sequence": "ATAGAAGTTTTTTTATCCTCTCTTTGTTTCCATTAT", "fluorescence intensity [a.u.]": 3020}
{"Sequence": "GCCTCCGAAGATTGGGACGTGCCAGCGGAGCAAGTT", "fluorescence intensity [a.u.]": 6230}
{"Sequence": "TGCGCGCCCGCGACCCACGTGACGGTGATTCATTCG", "fluorescence intensity [a.u.]": 16200}
{"Sequence": "CACATTATCAAACGTCACCTGCGTATTATCAACCGG", "fluorescence intensity [a.u.]": 5780}
{"Sequence": "CACTACATAACCCGTCACGTTTCAAAAACGAGCCAA", "fluorescence intensity [a.u.]": 12900}
{"Sequence": "TCGAGCTGACACTATCACATGCGATTGCGCAATCTT", "fluorescence intensity [a.u.]": 7130}
{"Sequence": "TCCAATTGTTAGAACGCCAGTCAGTTGTTTTCTTCG", "fluorescence intensity [a.u.]": 3310}
{"Sequence": "CGTCCTAGTGATTGCGTAGTGGGTGCCATGAGGAAG", "fluorescence intensity [a.u.]": 6590}
{"Sequence": "GACCTTGAATGCTAGAACGTGGAACATGAATTCCAG", "fluorescence intensity [a.u.]": 10800}
{"Sequence": "TGCCCGCAGTGGGTCCACGTGAAATGCGAGCCTTTG", "fluorescence intensity [a.u.]": 12700}
{"Sequence": "ACTCCAAAATACATCCTCGTGGCAACCCAGGTTACG", "fluorescence intensity [a.u.]": 12800}
{"Sequence": "CGAGGACGCCTGCTCTTTCACTTTGTATGGTGATGG", "fluorescence intensity [a.u.]": 4530}
{"Sequence": "TGCGCAACAACTTGTTCGGTGGGTGTATGTCTAGAA", "fluorescence intensity [a.u.]": 4600}
{"Sequence": "TCGCCTACGCTATTTCACGTTTGTGCTGATAGAAAC", "fluorescence intensity [a.u.]": 6790}
{"Sequence": "TACCGGATGCAATCGCACGGGCACTAGCCTGTGCCT", "fluorescence intensity [a.u.]": 7440}
{"Sequence": "TTTTCTAAGCTTTGTCGCGTGAGATCGCTTCTCATT", "fluorescence intensity [a.u.]": 5010}
{"data": "Block 3", "target": "Interferon regulatory factor 7, full length, phosphomimetic (IRF7, Homo sapiens, UniProt Q92985, residues 1-503, S471D/S472D/S475D/S476D/S477D/S483D/S484D/S487D)", "method": "protein-binding microarray", "molecule type": "double-stranded DNA, one strand shown", "medium": "in vitro", "tested at": "2200 nM top", "notes": "60-bp whole probe", "with": "salmon DNA 0.4 mg/ml", "baseline": "random background probes", "reading": "higher = stronger binding", "all sequences stand within": "GCCTAGCAC … GTCTTGATTCGCTTGACGCTGCTG", "sequence of UniProt Q92985 (whole entry, unmodified, looked up)": "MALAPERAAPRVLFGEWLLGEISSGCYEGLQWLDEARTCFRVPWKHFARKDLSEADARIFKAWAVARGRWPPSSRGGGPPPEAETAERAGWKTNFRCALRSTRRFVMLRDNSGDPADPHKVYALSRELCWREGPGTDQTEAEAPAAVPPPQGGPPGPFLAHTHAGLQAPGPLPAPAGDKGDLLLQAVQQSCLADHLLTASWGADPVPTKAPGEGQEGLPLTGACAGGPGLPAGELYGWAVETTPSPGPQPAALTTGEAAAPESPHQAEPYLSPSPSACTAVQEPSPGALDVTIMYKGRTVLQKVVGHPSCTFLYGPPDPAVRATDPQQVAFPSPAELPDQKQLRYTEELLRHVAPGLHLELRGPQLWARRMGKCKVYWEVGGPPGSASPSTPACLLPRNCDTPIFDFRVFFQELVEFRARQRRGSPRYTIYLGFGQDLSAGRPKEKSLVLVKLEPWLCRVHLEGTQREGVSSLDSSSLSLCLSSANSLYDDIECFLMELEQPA"}
{"Sequence": "TCAGATATCAGTATCGATTAGTGCTAG", "fitted relative affinity": "0.464 z-score"}
{"Sequence": "TTAGGTCTCGGTTTCGGGTAGTGCTAG", "fitted relative affinity": "5.24 z-score"}
{"Sequence": "TTAGGATTGGGTATCGGTTAGTGCTAG", "fitted relative affinity": "0.395 z-score"}
{"Sequence": "TCAACTTTCAGTTCTCCACTGTGCTAG", "fitted relative affinity": "7.34 z-score"}
{"Sequence": "CTTTCTTTATGCACTCTTTACGTGCTA", "fitted relative affinity": "2.24 z-score"}
{"Sequence": "CTATTTTTCCCCTGCACTCAGTGCTAG", "fitted relative affinity": "2.17 z-score"}
{"Sequence": "GACGAACTGAGTTTCGCGACGTGCTAG", "fitted relative affinity": "0.963 z-score"}
{"Sequence": "TTAGCTTTCCTTTTCCTTTAGTGCTAG", "fitted relative affinity": "7.66 z-score"}
{"Sequence": "GACGAGATCGGGACTGGAGACGTGCTA", "fitted relative affinity": "-0.397 z-score"}
{"Sequence": "TCATCTCTACATGTGTTACTGTGCTAG", "fitted relative affinity": "1.6 z-score"}
{"Sequence": "GACGGTCTCCTTTTCATGACGTGCTAG", "fitted relative affinity": "1.46 z-score"}
{"data": "Block 4", "target": "Ras GTPase-activating protein-binding protein 1, full length (G3BP1, Homo sapiens, UniProt Q13283)", "method": "RNA Bind-n-Seq", "molecule type": "RNA", "medium": "in vitro", "tested at": "200 nM", "notes": "whole 134-nt RNA, ends assumed", "with": "150 mM LiCl", "baseline": "input library", "reading": "higher = stronger binding", "library": "7-deaza-guanosine replaces G", "all sequences stand within": "GGGAGUUCUACAGUCCGACGAUC … UGGAAUUCUCGGGUGUCAAGG", "sequence of UniProt Q13283 (whole entry, looked up)": "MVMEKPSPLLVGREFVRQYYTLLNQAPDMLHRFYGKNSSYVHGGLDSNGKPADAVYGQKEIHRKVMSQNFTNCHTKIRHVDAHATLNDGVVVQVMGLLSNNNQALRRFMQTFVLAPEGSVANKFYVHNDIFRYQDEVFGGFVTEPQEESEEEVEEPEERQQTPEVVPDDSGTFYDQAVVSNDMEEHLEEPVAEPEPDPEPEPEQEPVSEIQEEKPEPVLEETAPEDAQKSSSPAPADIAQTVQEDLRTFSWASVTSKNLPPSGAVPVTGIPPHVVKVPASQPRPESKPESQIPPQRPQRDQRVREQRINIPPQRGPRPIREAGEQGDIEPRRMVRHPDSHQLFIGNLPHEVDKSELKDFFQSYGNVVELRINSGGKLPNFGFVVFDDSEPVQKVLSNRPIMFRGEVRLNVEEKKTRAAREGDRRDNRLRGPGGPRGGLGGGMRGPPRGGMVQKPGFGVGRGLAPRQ"}
{"Sequence": "UCAAGUCCUGUGCUACACAUCGUAUGUACCGAAUCGGGUGGGAGGGUUUUUGGGAAAGUAUUAUGUUACGCCGUUCGGAUCUGCACUUCC", "log2 enrichment": -0.627}
{"Sequence": "AGUCCUGUGCUACACAUCGUAUGUACCGAAUCGGGAAAAGGGGAAAAGGAAAAGGGGAAAGUAUUAUGUUACGCCGUUCGGAUCUGCACU", "log2 enrichment": -0.336}
{"Sequence": "GGAUUGGUAGCUUAUGUCGAUCUUGAUGAAAGAGCAAUUGAUGCUCUCAGGGAAUUUAAUGAAGAAGGAGCUCUGUCUGUACUACAGCAG", "log2 enrichment": 0.11}
{"Sequence": "CCAUAGACCCCUUUCUUCUCCCCUUCCCCACGGUAGGAACAUAGCGUGUUUAUAUUUUAUGGCCAAACUAUUUUGAAUUUUGUUGUCCGG", "log2 enrichment": -0.109}
{"Sequence": "GUCCUGUGCUACACAUCGUAUGUACCGAAUCGGGAGGGUUUUUUUGGGAAAAAAAGGGAAAGUAUUAUGUUACGCCGUUCGGAUCUGCAC", "log2 enrichment": -0.509}
{"Sequence": "CUGUGCUACACAUCGUAUGUACCGAAUCGGGGAAAGGGGAAAAAAAGGGGAAAAAAAGGGGAAAGUAUUAUGUUACGCCGUUCGGAUCUG", "log2 enrichment": 0.758}
{"Sequence": "UCCUGUGCUACACAUCGUAUGUACCGAAUCGGCCCCCCGGGCCCCCCGGGCCCCCCGGGGAAAGUAUUAUGUUACGCCGUUCGGAUCUGC", "log2 enrichment": -1.57}
{"Sequence": "CCUCAAGUCCUGUGCUACACAUCGUAUGUACCGAAUCGGGGCGGGCGGGCGGAAAGUAUUAUGUUACGCCGUUCGGAUCUGCACUUCCAG", "log2 enrichment": -0.272}
{"Sequence": "GCAAAAAGUAAAAACAAAUGGAAAUGCUUCGGAUAGUGGCAGGGGUGGGGGUUGCUAAGGAAAGGGUGGGAUGGGAGUGGGUAAAGAGUU", "log2 enrichment": -0.104}
{"Sequence": "CCUCAAGUCCUGUGCUACACAUCGUAUGUACCGAAUCGGCCGGCCGGCCGGGGAAAGUAUUAUGUUACGCCGUUCGGAUCUGCACUUCCA", "log2 enrichment": 0.288}
{"Sequence": "UCCUGUGCUACACAUCGUAUGUACCGAAUCGGAAAAAAGGGGAAAAAAGGGAAAAAAGGAAAGUAUUAUGUUACGCCGUUCGGAUCUGCA", "log2 enrichment": -0.208}
{"note": "Some of these lines once more (block 2):"}
{"Sequence": "CGTCCTAGTGATTGCGTAGTGGGTGCCATGAGGAAG", "fluorescence intensity [a.u.]": 6590}
{"Sequence": "TGCCCGCAGTGGGTCCACGTGAAATGCGAGCCTTTG", "fluorescence intensity [a.u.]": 12700}
{"Sequence": "GACGCCAAGTCCCATCACGTGGTTACGATGTATCGG", "fluorescence intensity [a.u.]": 14800}
{"Sequence": "CACTACATAACCCGTCACGTTTCAAAAACGAGCCAA", "fluorescence intensity [a.u.]": 12900}
{"Sequence": "ACTCCAAAATACATCCTCGTGGCAACCCAGGTTACG", "fluorescence intensity [a.u.]": 12800}
{"Sequence": "TCCAATTGTTAGAACGCCAGTCAGTTGTTTTCTTCG", "fluorescence intensity [a.u.]": 3310}
{"Sequence": "GACCTTGAATGCTAGAACGTGGAACATGAATTCCAG", "fluorescence intensity [a.u.]": 10800}
{"Sequence": "GCCTCCGAAGATTGGGACGTGCCAGCGGAGCAAGTT", "fluorescence intensity [a.u.]": 6230}
{"Sequence": "TCGCCTACGCTATTTCACGTTTGTGCTGATAGAAAC", "fluorescence intensity [a.u.]": 6790}
